{"data": "Published values gathered from unrelated publications", "note": "Parts stem from different laboratories: compare values within a part only."}
{"data": "Study 1", "target": "RING finger protein unkempt homolog, zinc fingers 1-6, GST-SBP tag (UNK, Homo sapiens, UniProt Q9C0B0, residues 30-357)", "method": "RNA Bind-n-Seq", "form": "RNA", "medium": "in vitro", "tested at": "not given", "setting": "RNA with constant flanks, human and mouse sites, ends assumed", "reference": "input RNA pool", "direction": "higher = stronger binding", "shared flanks, not repeated": "GGGAGUUCUACAGUCCGACGAUC … CAACAGAGGAUUGAGCAUCA", "Residues (chain)": "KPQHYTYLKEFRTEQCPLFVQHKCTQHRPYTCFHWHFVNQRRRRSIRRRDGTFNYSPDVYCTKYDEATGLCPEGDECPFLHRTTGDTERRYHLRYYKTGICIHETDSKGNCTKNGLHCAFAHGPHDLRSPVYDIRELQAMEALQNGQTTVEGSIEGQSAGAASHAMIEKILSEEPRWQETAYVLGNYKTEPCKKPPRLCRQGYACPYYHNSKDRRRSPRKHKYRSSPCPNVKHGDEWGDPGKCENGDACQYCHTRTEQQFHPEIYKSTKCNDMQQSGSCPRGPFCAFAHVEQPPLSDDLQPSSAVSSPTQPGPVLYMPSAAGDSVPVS"}
{"Sequence": "AGAUUGGCAUCAGCGCGGACACUGUAUGAGGUUUCCCUCCAGGAGUCAAUCCGAUACGCCCCUGGGGAUGCAGUGGAGAAGUGGCUGAAUGACUUGCUGUGCCUGGAUUGCCUCAACAUC", "bound/input enrichment [ratio]": 0.0549}
{"Sequence": "CCUCUUGCUCUAGAUAACAUACAUUUAGAGAAGCCUCAGUAUAAAGAAGAUGGAAAAUUGCAACUUGUUGGUGAUGUAAUUGAUUUGCGUACAGUACCAAAGGUAGAAGUUAAAACAACU", "bound/input enrichment [ratio]": 0.264}
{"Sequence": "CAUUCUAUAAGUUGCAAAGAGAAGUUGAAUAAAAAAAAUAAACUAGGAGCUGCAUUUACUGACGAUGGUUUUGCCAUGGGUGUGGCUUAUACCUUAAAGCUUUUGGAUCAGUACCAAGAG", "bound/input enrichment [ratio]": 0.945}
{"Sequence": "UAUAGUCCUGGAUCUUCUGGGGUUCCCUAUGCAAAUGCCAAAGGAAUUGGUUAUCCAGCUGGUUUUCCCAUGGGCUAUGCAGCAGCAGCUCCUGCCUAUUCUCCUAACAUGUAUCCUGGA", "bound/input enrichment [ratio]": 0.165}
{"Sequence": "GAUCCACAGUUCAAAGCAAACAGAAUCGACCGUUUGAUGAAUAAUCACAUUGAAGAUCCAGAUAAAGGCCUCUCAAAAUCUUCCUCUGAACUAGGUAUGAUUUUCAAUGAACGUGAUCAG", "bound/input enrichment [ratio]": 0.169}
{"Sequence": "UGUUUUUUGUUUUGUUUUUUGUUUUUAUAUACUGUAGUGUUUUAACCAAACAGUUGUGGCUACUCAUGGUGAGGAAUGACCGCUAAGAGUGUGGGUUCUUUGCAAUACAUUUGGAGGUCA", "bound/input enrichment [ratio]": 1.51}
{"Sequence": "GAGGAAGAACAAGAAGAGAACCUUGAAGCAAGUGGAGACUAUAAAUAUUCAGGAAGAGAUAGUUUGAUUUUUUUGGUUGAUGCCUCCAAGGCUAUGUUUGAAUCUCAGAGUGAAGAUGAG", "bound/input enrichment [ratio]": 5.24}
{"Sequence": "AUGUUUGGUUUUCCAGUGAGGAAAGCCACUGGGAACCUGACUGUGCCCUUUCCUGUCCUGAAUUUGUCUUCAGGCUUCAUCGGUCCCUCAGUUUUACUAUCCUUAUGAAACUCAGGCUUA", "bound/input enrichment [ratio]": 0.0965}
{"data": "Study 2", "target": "Histone acetyltransferase KAT6A, winged helix 1, GST fusion (KAT6A, Homo sapiens, UniProt Q92794, residues 1-85)", "method": "protein binding microarray", "form": "double-stranded DNA, one strand shown", "medium": "in vitro", "tested at": "not given", "setting": "8-mer, flanks averaged, mean of 2 arrays, mostly near background", "reference": "not given", "direction": "higher = stronger binding", "Residues (chain)": "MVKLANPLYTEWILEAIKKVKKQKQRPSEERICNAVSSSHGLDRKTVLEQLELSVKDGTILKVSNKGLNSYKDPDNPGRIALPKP"}
{"Sequence": "CTACATAC", "E-score": -0.0907}
{"Sequence": "CGCCAACC", "E-score": 0.226}
{"Sequence": "GCACTAGC", "E-score": 0.19}
{"Sequence": "GGAACGCA", "E-score": 0.0906}
{"Sequence": "ATTTAGAG", "E-score": -0.113}
{"Sequence": "GCGACCGC", "E-score": 0.374}
{"Sequence": "CGTGGCCA", "E-score": -0.086}
{"Sequence": "GCTGCTCC", "E-score": 0.0952}
{"Sequence": "CCAACTGA", "E-score": -0.134}
{"Sequence": "CCGCGAAC", "E-score": 0.319}
{"Sequence": "ATTAGAGA", "E-score": -0.113}
{"Sequence": "AACCGAAC", "E-score": -0.163}
{"Sequence": "CGCTGTTC", "E-score": 0.151}
{"Sequence": "ATGCTACA", "E-score": -0.157}
{"Sequence": "CTACAGTA", "E-score": -0.19}
{"Sequence": "CGAAGTGC", "E-score": 0.0705}
{"Sequence": "GGAGTCAA", "E-score": -0.165}
{"Sequence": "CAGCTTTC", "E-score": -0.0646}
{"Sequence": "CATGTGAG", "E-score": -0.248}
{"data": "Study 3", "target": "Interferon regulatory factor 5, full length, phosphomimetic (IRF5, Homo sapiens, UniProt Q13568-2, residues 1-514, S451D/S453D/S456D/S462D)", "method": "protein-binding microarray", "form": "double-stranded DNA, one strand shown", "medium": "in vitro", "tested at": "940 nM top", "setting": "60-bp whole probe", "added": "salmon DNA 0.4 mg/ml", "reference": "random background probes", "direction": "higher = stronger binding", "shared flanks, not repeated": "GCCTAGCAC … GTCTTGATTCGCTTGACGCTGCTG"}
{"Sequence": "TTAGAACTGGGGTTTCGATTCGTGCTA", "fitted relative affinity": "4.75 z-score"}
{"Sequence": "GACGGACTGGGGACAGGGGACGTGCTA", "fitted relative affinity": "0.129 z-score"}
{"Sequence": "GACGCTTTCCTTCTCCTGACGTGCTAG", "fitted relative affinity": "1.16 z-score"}
{"Sequence": "GACGTTATCAGACTGGAGACGTGCTAG", "fitted relative affinity": "-0.366 z-score"}
{"Sequence": "GAAGGTCTCGGTTTCGGGACGTGCTAG", "fitted relative affinity": "4.91 z-score"}
{"Sequence": "GACGAACTGAGTCGCGAGACGTGCTAG", "fitted relative affinity": "-0.629 z-score"}
{"Sequence": "TTAGATTTCGGGAATCGATTAGTGCTA", "fitted relative affinity": "0.727 z-score"}
{"Sequence": "GACGGTCTCCTTTTCCTGCCGTGCTAG", "fitted relative affinity": "0.657 z-score"}
{"Sequence": "GCCGATCTCAGTTTCGAGACGTGCTAG", "fitted relative affinity": "4.65 z-score"}
{"Sequence": "TCACATCTGCAAGATCCAACTGTGCTA", "fitted relative affinity": "0.253 z-score"}
{"Sequence": "GACGGTATCGGGCATCGGGACGTGCTA", "fitted relative affinity": "3.42 z-score"}
{"Sequence": "GACGATATCGGGACTTGAGACGTGCTA", "fitted relative affinity": "-0.297 z-score"}
{"Sequence": "TTAGATACCGGGTATCGATTAGTGCTA", "fitted relative affinity": "3.31 z-score"}
{"Sequence": "TTAGGACTGGACATTCGGTTAGTGCTA", "fitted relative affinity": "-0.392 z-score"}
{"Sequence": "TTAGGTATCGGGCTCGGTTAGTGCTAG", "fitted relative affinity": "3.95 z-score"}
{"Sequence": "GACGGTTCCCTTTCCCTGACGTGCTAG", "fitted relative affinity": "0.72 z-score"}
{"Sequence": "TCAGATTTCAGTTTCGATTAGTGCTAG", "fitted relative affinity": "9.5 z-score"}
{"Sequence": "GAGCCCGGGGTGTAAGCAACGTGCTAG", "fitted relative affinity": "-1.18 z-score"}
{"Sequence": "TTAGTTTCCCTTTTCCTTTAGTGCTAG", "fitted relative affinity": "5.36 z-score"}
{"data": "Study 4", "target": "RNA binding protein fox-1 homolog 2, RRM domain, GST-SBP tag (RBFOX2, Homo sapiens, UniProt O43251-10, residues 100-194)", "method": "RNA Bind-n-Seq", "form": "RNA", "medium": "in vitro", "tested at": "365 nM", "setting": "natural RNA segment, single round, ends assumed", "reference": "no-protein control", "direction": "higher = stronger binding", "shared flanks, not repeated": "GGGAGUUCUACAGUCCGACGAUC … UGGAAUUCUCGGGUGCCAA", "Target sequence (chain)": "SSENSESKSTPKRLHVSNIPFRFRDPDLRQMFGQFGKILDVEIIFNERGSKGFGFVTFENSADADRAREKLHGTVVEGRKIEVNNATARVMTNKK"}
{"Sequence": "UUUAAGUUUUGUAACACUGUCCUACUUUAUUUAUUAGAAUCUAAGGCUGUUACAAUCAAGUCGUUGCAGGGUUUGGAUCAGCUGUAAGUUAGGUAUGCCUACCAAACAUC", "RBNS enrichment (R)": 0.342}
{"Sequence": "CAGUAAAGAUAUGGGCCAAGGAUAGUUUUUGUACCUGGGGCCUAUACCCAAUAACAAAAUCUGCCGGUUUGUCACAGUGGCUCACCUCCCAGAACUCUGAGCAAAGGGAC", "RBNS enrichment (R)": 4.15}
{"Sequence": "UUUUGCCAUCCCAAUCUUAAGACUGUCUCAUAAUUACCAUGUUGAGGGAAACGCCCCCAGACUCCUGCUGCCACUGUUUUGUGAACUAAUGAACAUGAGCAGAAGCCUAA", "RBNS enrichment (R)": 0.577}
{"Sequence": "UGUUUUUGAAAUGUGUAUUUCUAAUUAUAUAAAAUAUUAAGAAUCUUUUAAAAAAAUCUGUGAAAUUAACAUGCUUGUGUAUAGCUUUCUAAUAUAUAUAAUAUUAUGGU", "RBNS enrichment (R)": 2.91}
{"Sequence": "UAGCCGGUUAUCUAGACCAGUAAGUGGAGUUUUGGACAUGCUGCUGCUGUCAACUCACUGGCUGAAGGAGCACUUCAAGGAAUGGGAGGCCUUUCACUGGGUCCAGCUCU", "RBNS enrichment (R)": 0.33}
{"Sequence": "AAACAUGUAAAAAUGUUUCAAAAAAAUAAUAAAAUAAAUAAAUACGAAGAAUAUGUCAGGACAGUCACUGCCUUCACCUUCUCCAUUUCACACCGGUGGUACAAGAAAUC", "RBNS enrichment (R)": 0.782}
{"Sequence": "CUUGGUGUCUGACUUCAGAGAGUCCUACAUGAACUCAGUAAUCCACAUCUCUCACACAGCUGAGAGUCACCUUUCCAGGCGGGCCUGGCCUUGUGUAGAAAGUCUCUGGG", "RBNS enrichment (R)": 0.443}
{"Sequence": "AGAGAAAGAACACAGGCUUCCUGGUCUGCCCUCCCCCUCCGCUCACCAGGAGCUAAACUGAGAGGCUAAACUGUGUCAUGAAGCGCGUUGGAAACAGACUUCUGCCUACA", "RBNS enrichment (R)": 0.258}
{"note": "For quick reference, copied from above (study 3):"}
{"Sequence": "TCACATCTGCAAGATCCAACTGTGCTA", "fitted relative affinity": "0.253 z-score"}
{"Sequence": "GACGGTATCGGGCATCGGGACGTGCTA", "fitted relative affinity": "3.42 z-score"}
{"Sequence": "GACGATATCGGGACTTGAGACGTGCTA", "fitted relative affinity": "-0.297 z-score"}
{"Sequence": "TTAGATACCGGGTATCGATTAGTGCTA", "fitted relative affinity": "3.31 z-score"}
{"Sequence": "TTAGGACTGGACATTCGGTTAGTGCTA", "fitted relative affinity": "-0.392 z-score"}
